Measurements pooled from the literature.
Each numbered part is a random draw from the data of one study; scales do not carry over between parts. “And” joins repeats or separate records; there may be more than shown.
UniProt Q9H1R3, sequence (whole entry, looked up): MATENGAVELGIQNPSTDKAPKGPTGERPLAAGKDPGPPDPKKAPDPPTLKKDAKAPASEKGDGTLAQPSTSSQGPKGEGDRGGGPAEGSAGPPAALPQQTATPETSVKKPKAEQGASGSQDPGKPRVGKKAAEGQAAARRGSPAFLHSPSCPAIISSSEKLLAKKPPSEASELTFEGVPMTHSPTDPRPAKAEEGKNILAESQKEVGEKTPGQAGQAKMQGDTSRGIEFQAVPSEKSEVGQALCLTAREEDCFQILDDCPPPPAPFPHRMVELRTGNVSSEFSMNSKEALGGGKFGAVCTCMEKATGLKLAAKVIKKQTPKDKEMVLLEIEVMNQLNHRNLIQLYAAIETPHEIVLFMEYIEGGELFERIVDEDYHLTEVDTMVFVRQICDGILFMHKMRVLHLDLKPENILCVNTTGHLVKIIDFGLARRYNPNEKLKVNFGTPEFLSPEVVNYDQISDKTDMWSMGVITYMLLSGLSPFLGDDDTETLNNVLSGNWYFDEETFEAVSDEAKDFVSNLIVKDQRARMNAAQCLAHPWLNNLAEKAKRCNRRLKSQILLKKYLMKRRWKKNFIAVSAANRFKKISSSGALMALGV
UniProt O95382, sequence (whole entry, looked up): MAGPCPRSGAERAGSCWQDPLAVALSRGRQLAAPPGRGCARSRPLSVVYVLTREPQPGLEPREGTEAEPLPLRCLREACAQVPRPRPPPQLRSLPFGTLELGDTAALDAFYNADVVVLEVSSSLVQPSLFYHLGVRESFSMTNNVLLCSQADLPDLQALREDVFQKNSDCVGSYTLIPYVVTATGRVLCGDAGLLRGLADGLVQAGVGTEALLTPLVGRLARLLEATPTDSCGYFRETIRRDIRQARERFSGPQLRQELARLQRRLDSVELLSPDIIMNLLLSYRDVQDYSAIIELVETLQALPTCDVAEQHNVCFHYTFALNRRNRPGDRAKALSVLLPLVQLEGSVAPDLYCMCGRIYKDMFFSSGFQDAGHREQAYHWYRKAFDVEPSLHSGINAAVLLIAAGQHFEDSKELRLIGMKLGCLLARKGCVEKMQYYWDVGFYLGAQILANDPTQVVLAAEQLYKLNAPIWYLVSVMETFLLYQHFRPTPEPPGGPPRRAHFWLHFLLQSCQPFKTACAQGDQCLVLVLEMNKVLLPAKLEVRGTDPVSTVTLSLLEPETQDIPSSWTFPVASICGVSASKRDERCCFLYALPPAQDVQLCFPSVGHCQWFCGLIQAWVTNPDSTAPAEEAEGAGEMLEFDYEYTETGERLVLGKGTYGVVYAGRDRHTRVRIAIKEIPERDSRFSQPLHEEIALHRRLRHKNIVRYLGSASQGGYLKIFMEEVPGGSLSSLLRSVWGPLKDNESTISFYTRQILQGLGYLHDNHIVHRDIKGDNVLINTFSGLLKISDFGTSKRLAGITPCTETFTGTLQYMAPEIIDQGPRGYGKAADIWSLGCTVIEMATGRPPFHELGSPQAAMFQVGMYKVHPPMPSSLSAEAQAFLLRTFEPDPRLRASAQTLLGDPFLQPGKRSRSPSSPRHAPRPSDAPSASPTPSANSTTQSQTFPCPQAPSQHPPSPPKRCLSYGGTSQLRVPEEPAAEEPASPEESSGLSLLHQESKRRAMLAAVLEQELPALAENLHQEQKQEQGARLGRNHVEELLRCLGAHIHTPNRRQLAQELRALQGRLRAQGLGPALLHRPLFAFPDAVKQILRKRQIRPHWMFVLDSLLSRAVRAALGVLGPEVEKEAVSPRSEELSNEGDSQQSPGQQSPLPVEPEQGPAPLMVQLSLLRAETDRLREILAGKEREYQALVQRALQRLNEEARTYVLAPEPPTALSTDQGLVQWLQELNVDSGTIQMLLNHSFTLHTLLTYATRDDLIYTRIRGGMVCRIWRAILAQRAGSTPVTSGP
UniProt O75676, sequence (whole entry, looked up): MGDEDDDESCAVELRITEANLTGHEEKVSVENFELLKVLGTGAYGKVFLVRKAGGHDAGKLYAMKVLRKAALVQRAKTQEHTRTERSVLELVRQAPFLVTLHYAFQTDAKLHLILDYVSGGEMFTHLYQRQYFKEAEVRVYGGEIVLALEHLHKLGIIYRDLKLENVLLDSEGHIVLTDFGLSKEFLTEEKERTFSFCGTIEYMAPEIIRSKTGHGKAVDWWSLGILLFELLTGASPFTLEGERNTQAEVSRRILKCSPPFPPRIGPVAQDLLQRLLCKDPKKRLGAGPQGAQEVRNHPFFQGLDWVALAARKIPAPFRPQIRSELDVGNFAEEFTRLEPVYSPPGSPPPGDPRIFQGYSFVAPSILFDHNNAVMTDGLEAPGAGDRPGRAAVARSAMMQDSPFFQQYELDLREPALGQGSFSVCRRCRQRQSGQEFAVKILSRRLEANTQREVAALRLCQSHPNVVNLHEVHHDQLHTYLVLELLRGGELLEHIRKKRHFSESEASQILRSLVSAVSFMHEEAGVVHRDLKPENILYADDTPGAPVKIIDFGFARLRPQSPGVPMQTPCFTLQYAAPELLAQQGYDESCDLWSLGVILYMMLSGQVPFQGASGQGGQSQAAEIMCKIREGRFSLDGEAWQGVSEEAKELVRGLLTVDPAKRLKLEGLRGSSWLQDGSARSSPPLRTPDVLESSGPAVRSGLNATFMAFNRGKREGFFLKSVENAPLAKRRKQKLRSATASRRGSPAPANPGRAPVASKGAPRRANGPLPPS
UniProt Q9Y6R4, sequence (whole entry, looked up): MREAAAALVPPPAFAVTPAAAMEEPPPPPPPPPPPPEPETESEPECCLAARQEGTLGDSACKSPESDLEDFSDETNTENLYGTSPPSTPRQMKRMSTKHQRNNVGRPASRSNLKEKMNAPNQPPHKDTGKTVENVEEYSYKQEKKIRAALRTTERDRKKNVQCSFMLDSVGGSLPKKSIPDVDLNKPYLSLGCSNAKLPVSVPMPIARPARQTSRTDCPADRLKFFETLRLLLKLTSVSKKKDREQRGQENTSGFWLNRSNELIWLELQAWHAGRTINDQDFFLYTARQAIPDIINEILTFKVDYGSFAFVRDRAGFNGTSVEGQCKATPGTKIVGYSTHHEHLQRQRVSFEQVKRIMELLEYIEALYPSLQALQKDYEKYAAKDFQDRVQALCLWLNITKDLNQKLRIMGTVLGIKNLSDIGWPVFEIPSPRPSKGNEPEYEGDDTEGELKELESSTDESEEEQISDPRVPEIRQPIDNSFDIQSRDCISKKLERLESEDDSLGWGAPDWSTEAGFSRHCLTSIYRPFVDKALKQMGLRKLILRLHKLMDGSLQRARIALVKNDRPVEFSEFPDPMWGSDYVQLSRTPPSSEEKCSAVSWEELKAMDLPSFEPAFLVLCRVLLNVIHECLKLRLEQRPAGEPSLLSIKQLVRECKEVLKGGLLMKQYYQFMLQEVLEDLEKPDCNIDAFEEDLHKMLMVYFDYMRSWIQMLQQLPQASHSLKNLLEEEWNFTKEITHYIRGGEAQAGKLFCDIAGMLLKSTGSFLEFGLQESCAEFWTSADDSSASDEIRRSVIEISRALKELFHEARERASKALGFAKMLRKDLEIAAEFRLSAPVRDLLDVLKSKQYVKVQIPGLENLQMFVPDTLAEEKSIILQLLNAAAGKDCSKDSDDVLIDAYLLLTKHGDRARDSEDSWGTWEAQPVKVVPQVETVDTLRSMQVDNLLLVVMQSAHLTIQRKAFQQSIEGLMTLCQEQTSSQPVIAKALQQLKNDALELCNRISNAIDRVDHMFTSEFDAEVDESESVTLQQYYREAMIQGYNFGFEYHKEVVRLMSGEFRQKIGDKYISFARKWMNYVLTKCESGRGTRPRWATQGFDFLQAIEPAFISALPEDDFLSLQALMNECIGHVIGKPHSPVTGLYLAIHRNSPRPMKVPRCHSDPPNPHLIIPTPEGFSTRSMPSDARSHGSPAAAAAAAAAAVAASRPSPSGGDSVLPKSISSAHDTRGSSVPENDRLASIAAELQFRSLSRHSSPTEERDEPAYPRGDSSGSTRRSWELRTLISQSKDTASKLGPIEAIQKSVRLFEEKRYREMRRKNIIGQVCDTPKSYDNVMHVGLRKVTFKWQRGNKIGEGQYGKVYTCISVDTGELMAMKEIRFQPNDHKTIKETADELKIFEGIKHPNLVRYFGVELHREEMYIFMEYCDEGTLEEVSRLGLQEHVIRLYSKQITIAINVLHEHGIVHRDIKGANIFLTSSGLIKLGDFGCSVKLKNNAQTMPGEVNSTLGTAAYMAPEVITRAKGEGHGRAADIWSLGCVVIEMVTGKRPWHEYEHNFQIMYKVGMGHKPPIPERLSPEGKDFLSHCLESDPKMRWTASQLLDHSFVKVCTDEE
UniProt Q9Y6E0, sequence (whole entry, looked up): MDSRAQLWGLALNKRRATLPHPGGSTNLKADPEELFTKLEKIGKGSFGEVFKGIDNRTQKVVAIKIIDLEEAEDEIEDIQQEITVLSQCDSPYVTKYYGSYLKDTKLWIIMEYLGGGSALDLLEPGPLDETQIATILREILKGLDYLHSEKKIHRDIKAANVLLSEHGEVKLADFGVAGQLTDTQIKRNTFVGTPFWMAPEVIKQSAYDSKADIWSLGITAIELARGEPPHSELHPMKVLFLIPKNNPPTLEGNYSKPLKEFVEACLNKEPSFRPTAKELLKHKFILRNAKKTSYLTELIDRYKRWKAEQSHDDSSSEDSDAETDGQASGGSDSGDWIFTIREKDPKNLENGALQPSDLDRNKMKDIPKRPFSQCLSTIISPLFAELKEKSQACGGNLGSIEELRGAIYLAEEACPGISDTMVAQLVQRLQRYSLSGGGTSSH
UniProt Q86YV6, sequence (whole entry, looked up): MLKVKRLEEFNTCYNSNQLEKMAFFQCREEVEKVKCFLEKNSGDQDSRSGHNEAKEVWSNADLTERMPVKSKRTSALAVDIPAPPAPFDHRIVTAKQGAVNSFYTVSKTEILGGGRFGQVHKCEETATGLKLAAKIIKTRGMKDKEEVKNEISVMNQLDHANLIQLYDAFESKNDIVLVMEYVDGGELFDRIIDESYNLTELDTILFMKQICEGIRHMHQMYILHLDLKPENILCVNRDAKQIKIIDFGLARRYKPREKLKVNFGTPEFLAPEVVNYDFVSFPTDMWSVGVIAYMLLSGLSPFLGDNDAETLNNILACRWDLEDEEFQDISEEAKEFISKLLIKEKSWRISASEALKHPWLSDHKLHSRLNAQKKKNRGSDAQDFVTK

Series 1 — host: human; matrix: microsomes or S9; concentration: 2 µM; time: 0.5 h
`CN1CC2(CCN(C(=O)NC3CCCCC3)CC2)CC1C(=O)N1CCOCC1` (stereo not shown) has a remaining compound of 83.5%.
`c1ccc(-c2nnc(-c3cc4ccccc4o3)o2)nc1` gave a remaining compound of 27.2%.
For `O=C1CC(c2ccccc2Cl)CC2=C1C(c1ccc3c(c1)OCO3)Nc1ccccc1N2` (stereo not shown), the remaining compound was 2.85%.
`CCCc1c(C(=O)NC2CC2)nnn1-c1ccc(NC(=O)CC(F)(F)F)cc1` gave a remaining compound of 79.7%.
`CCc1nc(CNc2ncnc3cc(Br)sc23)co1` has a remaining compound of 0.441%.
`Nc1ccc(C(=O)OCc2nc3c(ccc4ccccc43)[nH]2)cc1` gave a remaining compound of 6.1%.

Series 2 — Structure (SMILES): CCOc1nc(NC(=O)Cc2cc(OC)ccc2OC)cc(N)c1C#N; effect on: enzyme activity; action: inhibitor; concentration: 0.5 µM; baseline: control
ERBB4 (Homo sapiens, UniProt Q15303) — remaining activity: 98.6%.
MAPK8 (Homo sapiens, UniProt P45983) — remaining activity: 28.1%.
For TYK2 (Homo sapiens, UniProt P29597): remaining activity read 101%.
It gave 97.7% for remaining activity (CSNK1G1 (Homo sapiens, UniProt Q9HCP0)).
MYLK2 (Homo sapiens, UniProt Q9H1R3) — remaining activity: 99.6%.
The remaining activity was 99.5% (STK24 (Homo sapiens, UniProt Q9Y6E0)).

Series 3 — technique: competition with immobilised ligand; concentration: 1 µM
SMILES: N#Cc1ccc(Nc2ccc3[nH]c(=O)[nH]c3c2)c(Cl)c1
For BMP2K (Homo sapiens, UniProt Q9NSY1); cell-free assay: remaining binding read 91%.
For EGFR (Homo sapiens, UniProt P00533, L858R); cell-free assay: remaining binding read 100%.
It gave 100% for remaining binding (STK10 (Homo sapiens, UniProt O94804); cell-free assay).
MAP3K4 (Homo sapiens, UniProt Q9Y6R4); cell-free assay — remaining binding: 95%.
TTK (Homo sapiens, UniProt P33981); cell-free assay — remaining binding: 88%.
TXK (Homo sapiens, UniProt P42681); binding — remaining binding: 87%.
It gave 100% for remaining binding (EPHA7 (Homo sapiens, UniProt Q15375); cell-free assay).
It gave 99% for remaining binding (MYLK2 (Homo sapiens, UniProt Q9H1R3); cell-free assay).
Receptor-type tyrosine-protein kinase FLT3, autoinhibited (FLT3, Homo sapiens, UniProt P36888); cell-free assay — remaining binding: 97%.
For Ribosomal protein S6 kinase alpha-4, N-terminal kinase domain (RPS6KA4, Homo sapiens, UniProt O75676); cell-free assay: remaining binding read 70%.
For TAOK3 (Homo sapiens, UniProt Q9H2K8); cell-free assay: remaining binding read 100%.
MET (Homo sapiens, UniProt P08581, M1250T); cell-free assay — remaining binding: 100%.
PIK3CA (Homo sapiens, UniProt P42336, E542K); cell-free assay — remaining binding: 70%.
For DMPK (Homo sapiens, UniProt Q09013); cell-free assay: remaining binding read 81%.
It gave 100% for remaining binding (MAP3K6 (Homo sapiens, UniProt O95382); cell-free assay).
ERN1 (Homo sapiens, UniProt O75460); cell-free assay — remaining binding: 86%.
For MYLK4 (Homo sapiens, UniProt Q86YV6); cell-free assay: remaining binding read 100%.

Series 4 — cell line: mouse MPNST tumor cells; technique: high-content nuclear imaging; item: cell number; concentration: 10 µM; time: 12 h; setting: mean of 2 replicates; baseline: plate mean; direction: higher = more cells
The nuclei count of `N[C@@H](CC(=O)N1CCn2c(nnc2C(F)(F)F)C1)Cc1[nH]nc2c(F)c(F)ccc12` is reported as -0.39 z-score.
The nuclei count of `O=C1[C@H](CC[C@H](O)c2ccc(F)cc2)[C@@H](c2ccc(O)cc2)N1c1ccc(F)cc1` is reported as 3.71 z-score and 3.66 z-score.
For `CO[C@@]1(NC(=O)C2SC(=C(C(N)=O)C(=O)O)S2)C(=O)N2C(C(=O)O)=C(CSc3nnnn3C)CS[C@@H]21` (stereo partly shown), the nuclei count was 0.321 z-score.
The nuclei count of `CN1C(=O)N(c2cc(Cl)cc(Cl)c2)C(=O)[C@]12CN(c1ccc(C(=O)O)cn1)C[C@H]2c1ccc(C#N)cc1` is reported as 0.118 z-score.

Mixed results
With `COc1ccc(-n2nc(C(N)=O)c3c2C(=O)N(c2ccc(N4CCCCC4=O)cc2)CC3)cc1` the viability was 65.3% (A-375; 100 µM, 60 h).

Repeated from above (series 2):
For TYK2 (Homo sapiens, UniProt P29597): remaining activity read 101%.
The remaining activity was 99.5% (STK24 (Homo sapiens, UniProt Q9Y6E0)).
MAPK8 (Homo sapiens, UniProt P45983) — remaining activity: 28.1%.
MYLK2 (Homo sapiens, UniProt Q9H1R3) — remaining activity: 99.6%.
